Results gathered from unrelated publications.
Protocols differ between the studies behind these lines. Several values in a cell are separate wells, animals, samples, runs or records. ± gives the spread as reported.
rep methyltransferase: Replicase polyprotein 1ab, methyltransferase (rep, Severe acute respiratory syndrome coronavirus 2, UniProt P0DTD1)
rep main protease: Replicase polyprotein 1ab, main protease (rep, Severe acute respiratory syndrome coronavirus 2, UniProt P0DTD1)
rep papain-like protease: Replicase polyprotein 1ab, papain-like protease (rep, Severe acute respiratory syndrome coronavirus 2, UniProt P0DTD1)
rep nsp13 helicase: Replicase polyprotein 1ab, nsp13 helicase (rep, Severe acute respiratory syndrome coronavirus 2, UniProt P0DTD1)
rep nsp14: Replicase polyprotein 1ab, nsp14 (rep, Severe acute respiratory syndrome coronavirus 2, UniProt P0DTD1)

Compound | target | assay | system | setting | IC50
O=C(Nc1ncc([N+](=O)[O-])s1)c1ccccc1O | rep methyltransferase | enzyme activity, inhibitor | – | – | 98 µM
Cc1cccc(C)c1OCC(=O)N[C@@H](Cc1ccccc1)[C@@H](O)C[C@H](Cc1ccccc1)NC(=O)[C@H](C(C)C)N1CCCNC1=O | rep main protease | enzyme activity, inhibitor | – | – | 0.224 µM
CC(C)N(CCC(=O)c1ccc2ccccc2c1)Cc1ccccc1 | rep methyltransferase | enzyme activity, inhibitor | – | pH 7.5 | < 10 µM and 6 µM
COc1ccc2c(c1)n(C(C)C)c[n+]2C(C)C.[Cl][Ag] | rep main protease | enzyme activity, inhibitor | – | – | > 50 µM
CC1(C)S[C@@H]2[C@H](NC(=O)[C@H](N)c3ccccc3)C(=O)N2[C@H]1C(=O)OC1OC(=O)c2ccccc21 (stereo partly drawn) | rep main protease | enzyme activity, inhibitor, FRET | – | – | 250 to 600 µM
CCC(C(=O)Nc1ccccc1C)n1cccc2nc(SCc3cccc(F)c3)nc1-2 (stereo not drawn) | rep papain-like protease | enzyme activity, inhibitor | – | – | 4.16 µM
CCOC(=O)c1c(NC(=O)c2cc3ccccc3o2)sc(C)c1-c1ccccc1 | Replicase polyprotein 1ab, nsp14 N7-methyltransferase (rep, Severe acute respiratory syndrome coronavirus 2, UniProt P0DTD1) | N7-methyltransferase activity, inhibitor, Py-FLINT | – | – | 97.9 µM
CCOc1ccc(NC(=O)CN(C)S(=O)(=O)c2ccc(-c3ccc(=O)[nH]n3)s2)cc1 | rep nsp13 helicase | helicase ATPase activity, inhibitor, Kinase-Glo luminescence | – | – | > 150 µM
CC[C@H](CC[C@@H](C)[C@H]1CC[C@H]2[C@@H]3CC=C4C[C@@H](O)CC[C@]4(C)[C@H]3CC[C@]12C)C(C)C | rep main protease | enzyme activity, inhibitor | – | added: fluorogenic substrate | 88.2 ± 3.75 µM
CCOc1cccc(C2C(C(=O)c3ccc(C)o3)=C(O)C(=O)N2Cc2ccccc2)c1 (stereo not drawn) | rep nsp13 helicase | helicase ATPase activity, inhibitor, Kinase-Glo luminescence | – | 60 min, added: 2.5 µM ATP | 40 µM
Cc1cc(SCc2sc(-c3ccc(C(F)(F)F)c(F)c3)nc2C)ccc1OCC(=O)O | rep main protease | 3CL protease activity, inhibitor | – | – | 22.3 µM
COc1cc2c(cc1O)CCN[C@]21CS[C@@H]2c3c(OC(C)=O)c(C)c4c(c3[C@H](COC1=O)N1[C@@H]2[C@H]2c3c(cc(C)c(OC)c3O)C[C@@H]([C@@H]1C#N)N2C)OCO4 | Replicase polyprotein 1ab, nsp12 RdRp (rep, Severe acute respiratory syndrome coronavirus 2, UniProt P0DTD1) | RdRp-dependent reporter gene, GLuc reporter | HEK293T | 24 h | 0.028 µM
CCC(C(=O)Nc1ccccc1C)n1cccc2nc(S(=O)(=O)Cc3ccc(F)cc3)nc1-2 (stereo not drawn) | rep papain-like protease | enzyme activity, inhibitor | – | – | 4.82 µM
Cc1ccc(NC(=O)C2(c3ccc4c(c3)OC(F)(F)O4)CC2)nc1-c1cccc(C(=O)O)c1 | Replicase polyprotein 1ab, helicase (rep, Severe acute respiratory syndrome coronavirus 2, UniProt P0DTD1) | enzyme activity, inhibitor | – | – | > 100 µM
CCC(C(=O)Nc1ccccc1C)n1cccc2nc(SCc3ccc(OC)cc3)nc1-2 (stereo not drawn) | rep papain-like protease | enzyme activity, inhibitor | – | – | 3.51 µM
COC(=O)c1ccccc1NC(=O)c1ccc2c(c1)CC(c1ccc(F)cc1)OC2=O (stereo not drawn) | rep methyltransferase | enzyme activity, inhibitor | – | – | > 250 µM
COc1ccccc1CNC(=O)c1cc(S(=O)(=O)N2CCC(C(F)F)CC2)c(C)n1C | rep nsp14 | inhibitor | – | – | 0.086 µM
CCCC(C(=O)Nc1cc(NC2CCNCC2)ccc1C)n1cccc2nc(SCc3ccc(F)cc3)nc1-2 (stereo not drawn) | rep papain-like protease | enzyme activity, inhibitor | – | – | 1.74 µM
Cc1cc(-c2ccc(/N=N/c3ccc4c(S(=O)(=O)O)cc(S(=O)(=O)O)c(N)c4c3O)c(C)c2)ccc1/N=N/c1ccc2c(S(=O)(=O)O)cc(S(=O)(=O)O)c(N)c2c1O | rep methyltransferase | enzyme activity, inhibitor | – | pH 7.5 | < 10 µM
CCn1c[n+](CC)c2ccccc21.[Cl][Ag] | rep main protease | enzyme activity, inhibitor | – | – | > 50 µM
CC(=O)Oc1cc2c(s1)CCN(C(C(=O)C1CC1)c1ccccc1F)C2 (stereo not drawn) | rep nsp14 | inhibitor | – | – | 25.8 to 36.6 µM

Compound | target | assay | system | setting | IC50
CCCC(C(=O)Nc1cc(NC2CCNC2)ccc1C)n1cccc2nc(SCc3ccc(F)cc3)nc1-2 (stereo not drawn) | rep papain-like protease | enzyme activity, inhibitor | – | – | 1.36 µM
CC1CC(c2ccc(C(=O)O)cc2)=NN1c1ccccc1 (stereo not drawn) | rep methyltransferase | enzyme activity, inhibitor | – | – | 100 µM
CCCCCCCCCCCCCCCC(=O)OCC(O)CO (stereo not drawn) | rep main protease | enzyme activity, inhibitor | – | added: fluorogenic substrate | 29.2 ± 1.24 µM
Cc1ccc(N2C(=O)NC(=O)/C(=C\c3ccc(-c4ccc(Cl)c(C(=O)O)c4)o3)C2=O)cc1 | rep nsp13 helicase | helicase ATPase activity, inhibitor, Kinase-Glo luminescence | – | 60 min, added: 2.5 µM ATP | 59 µM
Cn1c(CCCC(=O)O)nc2cc(N(CCCl)CCCl)ccc21 | rep nsp14 | methyltransferase activity, inhibitor, RapidFire MS, item: SAH | – | – | 26.6 to 40.1 µM
CCn1ccc(-c2cc(-c3cnn(C)c3)cc([C@@H](C)NC(=O)c3ccccc3CCC(=O)NNC(C)=O)c2)n1 | rep papain-like protease | enzyme activity, inhibitor | – | – | > 10 µM
O=C(O)c1ccc(-n2cccc2/C=C2/NC(=O)N(c3cccc(Cl)c3)C2=O)cc1 | rep nsp13 helicase | helicase ATPase activity, inhibitor, Kinase-Glo luminescence | – | 60 min, added: 2.5 µM ATP | 3 µM
O=C1c2c(O)ccc(O)c2C(=O)c2c(NCCNCCO)ccc(NCCNCCO)c21 | rep methyltransferase | enzyme activity, inhibitor | – | pH 7.5 | < 10 µM and 4.9 µM
CC1CC(c2ccc(C(=O)O)cc2)=NN1c1ccc(C#N)cc1 (stereo not drawn) | rep methyltransferase | enzyme activity, inhibitor | – | – | 39.8 µM
COc1cc(/C=C/C(=O)Nc2nc3ccc(S(=O)(=O)N(C)C)cc3s2)cc(OC)c1OC | rep nsp13 helicase | helicase ATPase activity, inhibitor, Kinase-Glo luminescence | – | – | 33 µM
Cc1nn(-c2ccc(Cl)cc2)c2c1C(c1ccc(Cl)cc1Cl)C(C#N)=C(N)O2 (stereo not drawn) | rep main protease | 3CL protease activity | – | 90 min | 84.3 µM
Cn1cc(C(=O)Nc2nc(-c3ccccn3)cs2)c2ccccc2c1=O | rep methyltransferase | enzyme activity, inhibitor | – | – | 123 µM
Cc1ccc(/N=C/c2cc(Cc3ccccc3Cl)cc([N+](=O)[O-])c2O)c(O)c1 | rep nsp13 helicase | helicase ATPase activity, inhibitor, Kinase-Glo luminescence | – | – | 45 µM
CC1CC(c2cccc(C(=O)O)c2)=NN1c1ccc(C#N)c(Cl)c1 (stereo not drawn) | rep methyltransferase | enzyme activity, inhibitor | – | – | 3.45 µM
O=C(O)C1=C(CSc2nnnn2CS(=O)(=O)O)CS[C@@H]2[C@H](NC(=O)[C@H](O)c3ccccc3)C(=O)N12 | rep papain-like protease | enzyme activity, inhibitor | – | – | 2.17 µM
CC(C)n1c[n+](C(C)C)c2ccccc21.[Ag][I] | rep main protease | enzyme activity, inhibitor | – | – | > 50 µM
COc1ccccc1CNC(=O)c1c(C)c(S(=O)(=O)N2CCC(C)CC2)c(C)n1C | rep nsp14 | inhibitor | – | – | > 6.25 µM
Cc1ccc(C(=O)/C=C/c2cc(Br)cc(Br)c2O)o1 | rep nsp13 helicase | helicase ATPase activity, inhibitor, Kinase-Glo luminescence | – | 60 min, added: 2.5 µM ATP | 5 µM
CC(=O)c1cccc(NC(=O)c2cc3c(=O)n4ccccc4nc3n2C)c1 | rep main protease | 3CL protease activity | – | – | 5.43 µM
CCC(C(=O)Nc1ccccc1C)n1cccc2nc(S)nc1-2 (stereo not drawn) | rep papain-like protease | enzyme activity, inhibitor | – | – | > 20 µM
COC(=O)c1ccc2c(c1)C(C)(C)C(/C=C/c1ccc(OC)c(OC)c1OC)=[N+]2C | rep nsp13 helicase | helicase ATPase activity, inhibitor, Kinase-Glo luminescence | – | – | > 150 µM

Some of these lines once more:
Compound | target | assay | system | setting | IC50
CCn1c[n+](CC)c2ccccc21.[Cl][Ag] | rep main protease | enzyme activity, inhibitor | – | – | > 50 µM
CCC(C(=O)Nc1ccccc1C)n1cccc2nc(SCc3ccc(OC)cc3)nc1-2 (stereo not drawn) | rep papain-like protease | enzyme activity, inhibitor | – | – | 3.51 µM
Cc1ccc(C(=O)/C=C/c2cc(Br)cc(Br)c2O)o1 | rep nsp13 helicase | helicase ATPase activity, inhibitor, Kinase-Glo luminescence | – | 60 min, added: 2.5 µM ATP | 5 µM
